# Assay results pooled from the literature.
# Parts stem from different laboratories: compare values within a part only. Substitutions count along the parent as printed.

# Study 1
# Target: Fragile X messenger ribonucleoprotein 1, C-terminal low-complexity region (Fmr1, Mus musculus, UniProt P35922)
# Technique: RNA Bind-n-Seq
# Form: RNA
# Matrix: in vitro
# Concentration: 200 nM
# Setting: whole 134-nt RNA, ends assumed
# With: 150 mM KCl
# Reference: input library
# Direction: higher = stronger binding
Strand,log2 enrichment
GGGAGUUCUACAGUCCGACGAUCUGGCCCUGGUGGCAUGCGGGGAGGAAGAGGUGGCCUCAUGGAUCGUGGUGGUCCCGGUGGAAUGUUCAGAGGUGGCCGUGGUGGAGUCAGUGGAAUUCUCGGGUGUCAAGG,0.0353
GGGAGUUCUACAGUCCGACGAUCAAGUCCUGUGCUACACAUCGUAUGUACCGAAUCGGUUUUUGGUUUUUUUGGUUUGGAAAGUAUUAUGUUACGCCGUUCGGAUCUGCACUUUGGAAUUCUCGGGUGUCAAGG,-0.833
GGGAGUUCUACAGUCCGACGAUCCCUCAAGUCCUGUGCUACACAUCGUAUGUACCGAAUCGGGUGGGGUGGGUGGAAAGUAUUAUGUUACGCCGUUCGGAUCUGCACUUCCAGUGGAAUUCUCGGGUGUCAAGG,1.36
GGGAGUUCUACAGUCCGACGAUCCUGUGCUACACAUCGUAUGUACCGAAUCGGGGAAAAAAAGGAAAAAAAGGGAAAAAAAGGGGAAAGUAUUAUGUUACGCCGUUCGGAUCUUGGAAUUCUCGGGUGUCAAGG,-0.256
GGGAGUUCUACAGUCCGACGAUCGUCCUGUGCUACACAUCGUAUGUACCGAAUCGGGGUUUGGGGUUUGGGGAAAAAGGGGAAAGUAUUAUGUUACGCCGUUCGGAUCUGCACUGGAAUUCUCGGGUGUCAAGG,0.616
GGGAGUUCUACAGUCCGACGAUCUAACUUUAGAGGAGGAUCUGAUGGAUAUGGCAGUGGACGUGGAUUUGGGGAUGGCUAUAAUGGGUAUGGAGGAGGAGCUGGAGGUGGCAAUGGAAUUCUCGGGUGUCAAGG,0.777
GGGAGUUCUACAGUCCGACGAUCGCAGGAAGUAAAAACAAAUGGAAAUGCUUCGGAUAGUGGCAGGGGUGGGGGAAACUAAGGAAAGGGUGGGAUGGGAGUGGGUAAAGAGUUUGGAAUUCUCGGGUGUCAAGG,0.065
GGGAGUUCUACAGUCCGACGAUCAAAGGAAGUAAAAACAAAUGGAAAUGCUUCGGAUAGUGGCAGGGGUGGGGGUUGCUAAGGAAAGGGUGGGAUGGGAGUGGGUAAAGAGUUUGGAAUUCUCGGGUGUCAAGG,0.146
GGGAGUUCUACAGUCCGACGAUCUUCUCUUCACUCCCACCAGUGCGGGUGGUCUUUGCAGUGACUAUGGAAGGCAGUGCACGGAAAGUCAUCACUGUCCGGUCAGCCCUCAUUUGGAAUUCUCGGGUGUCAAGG,-0.526
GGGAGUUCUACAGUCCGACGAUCUCCUCAAGUCCUGUGCUACACAUCGUAUGUACCGAAUCGGAGGUUUGGUGGAAAGUAUUAUGUUACGCCGUUCGGAUCUGCACUUCCAGCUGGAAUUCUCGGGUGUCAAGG,-0.615

# Study 2
# Target: ABI1, truncated, D143A, DHFR fusion (Arabidopsis thaliana)
# Technique: DHFR PCA, deep sequencing
# Matrix: yeast
# Setting: methotrexate growth selection, single substitutions
# With: (+)-ABA 17 µM
# Reference: wild-type fitted maximum
# Direction: higher = stronger binding
# Parent: PYL1, truncated, DHFR fusion (Arabidopsis thaliana); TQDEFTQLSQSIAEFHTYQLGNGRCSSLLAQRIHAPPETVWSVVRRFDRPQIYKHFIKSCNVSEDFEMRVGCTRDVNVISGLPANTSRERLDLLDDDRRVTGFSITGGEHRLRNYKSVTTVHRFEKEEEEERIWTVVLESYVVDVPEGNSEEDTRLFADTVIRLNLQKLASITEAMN
Variant,relative binding score [%]
D96L,3.38
D75V,95
T17R,65.2
T1D,81.3
V121L,65.6
E128A,89.4
D65L,54.4
S63M,78.1
V143L,26.7
H110A,0.127
S27N,87.1
R49Y,48.3
R99C,81
V44G,-2.74

# Study 3
# Target: RNA binding protein fox-1 homolog 2, RRM domain, GST-SBP tag (RBFOX2, Homo sapiens, UniProt O43251-10, residues 100-194)
# Technique: RNA Bind-n-Seq
# Form: RNA
# Matrix: in vitro
# Concentration: 365 nM
# Setting: natural RNA segment, single round, ends assumed
# Reference: no-protein control
# Direction: higher = stronger binding
# Construct (chain): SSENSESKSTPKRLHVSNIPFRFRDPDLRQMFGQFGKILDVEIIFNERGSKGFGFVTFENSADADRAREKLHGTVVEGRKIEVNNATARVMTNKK
Strand,RBNS enrichment (R)
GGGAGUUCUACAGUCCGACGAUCUUGGCCCCACCCAAGCCCAAACUUACCUUCUCUGGGGGAAAAAAAAGGAAAGAUGGUAAUAGUGAGAGAUUCGGGGGGCACCCCCUCCCCAUUGGUUUCUGGCCCUUUCAUGGAAUUCUCGGGUGCCAA,0.384
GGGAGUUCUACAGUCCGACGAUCAGACCGUGGAUUUGGCUUAGCACUGUUAAGCAUACAGGUAUCUACAGGCCUGGUGUGGUUUGUUCUGGUCUCAUUCAGGUUUAGGGGUGCUCCUGCACAGGCUUCUGCACUGGAAUUCUCGGGUGCCAA,0.393
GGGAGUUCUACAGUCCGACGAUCUCAGUUUCCAAAUGCAAUACUCUAUUCUGGUUUUUCCUGAGUGAGCCUGAUUUUGUUCCUGUUUUUCAUCUACGAGGGUAAAAGCAUACCCCGGGAAAUCCCUGUGGCCAUGGAAUUCUCGGGUGCCAA,0.325
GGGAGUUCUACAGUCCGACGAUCUCCGUCGUGGUGGAUGGACUUCACAUCAGCAGCAGUUCUGGUACAGAAUUGUAAUGUGUUUUCAUUUCUCUGUAGGAUUCACCUCUCACCAGCGUCUGUCUUAAAGGUAGUGGAAUUCUCGGGUGCCAA,0.212
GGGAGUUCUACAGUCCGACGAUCGGUCGUACACGAAUGUCUAAAGAGACAUUCAAAACUCGAAUAGGGUGCAGAGUAAUUUCUUACUGUGAGGAAUUGCCCAAUGUAUGGAAAGAUGCAUAGUUGGCUCUCACUGGAAUUCUCGGGUGCCAA,0.34
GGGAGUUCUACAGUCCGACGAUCUUCUGUCUCUAUGAGAGAUAGCUUAUUACUCUGAUACUCUUUAAUCUUUUACAAAGGCAAGUUGCCACUUGUCAUUUUUGUUUCUGAAAAAUAAAAGUAUAACUUAUUCAUGGAAUUCUCGGGUGCCAA,0.387
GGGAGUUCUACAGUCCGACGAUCCAUAGUUUGGGAGUGGAGAAUACAGACAUUAUCAGCAGUGACAAAUCACAUAGCUUCAAAAACUCCUCCAGUUUGUGACAACAUGACAGGUGUGACAGCAUGACAGGUUUUGGAAUUCUCGGGUGCCAA,1.67
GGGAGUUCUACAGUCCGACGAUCCCUGCACUGAGCUGGCCUCACCAGUCGACUGAGGGAGCCCCUCAGCCCUGACCUUCUCCUGACCUGGCCUUUGACUCCCCGGAGUGGAGUGGGGUGGGAGAACCUCCUGGUGGAAUUCUCGGGUGCCAA,0.347
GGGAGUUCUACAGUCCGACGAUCUUCCAAUAGAAAAUUCCGCUUGACCUUUGGUGCACUGCCCACUUCCCAGCUCCACUGGCCCAAGUCUGAGCCGGAGGCCCUUGUUUUGGGGGCGGGGGGAGAGUUGGAUGUGGAAUUCUCGGGUGCCAA,0.77
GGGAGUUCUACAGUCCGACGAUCUCCUUCCCUCCCUUCCUCUCCCACCAUGCGAUGAGCAUCCUUUCAGGCCAGUGUCUGCAGAGCCUCAGUUACCAGGUUUGGUUUCUGAGUGCCUAUCUGUGCUCUUUCCUUGGAAUUCUCGGGUGCCAA,0.64
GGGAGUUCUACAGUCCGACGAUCCCUGUUCGGCCUCCUGUCUAUCAGUGAGGCAUCUCUGACUGUUUCUUCUACUGCUUUUCAGUUCCCUUCCCUGCUGUUCUAUUUCCUUUGAGUGUAAAGACUCACAGGUGUGGAAUUCUCGGGUGCCAA,0.31
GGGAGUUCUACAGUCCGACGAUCACAGAAUUUCAGUAGCUUACAUAAAUCCUGAGAAUGUGAUUGGUUUUAAAAAGUAAGGUUUAAAGUCACAGCAGAUAGGAGAUUAAUGUUUUAUUGCCACAGAAAUUCUCUGGAAUUCUCGGGUGCCAA,0.535

# Study 4
# Target: Centromere-binding protein 1, full length, N-terminal tag (CBF1, Saccharomyces cerevisiae, UniProt P17106, residues 1-351)
# Sequence of UniProt P17106 (whole entry, looked up): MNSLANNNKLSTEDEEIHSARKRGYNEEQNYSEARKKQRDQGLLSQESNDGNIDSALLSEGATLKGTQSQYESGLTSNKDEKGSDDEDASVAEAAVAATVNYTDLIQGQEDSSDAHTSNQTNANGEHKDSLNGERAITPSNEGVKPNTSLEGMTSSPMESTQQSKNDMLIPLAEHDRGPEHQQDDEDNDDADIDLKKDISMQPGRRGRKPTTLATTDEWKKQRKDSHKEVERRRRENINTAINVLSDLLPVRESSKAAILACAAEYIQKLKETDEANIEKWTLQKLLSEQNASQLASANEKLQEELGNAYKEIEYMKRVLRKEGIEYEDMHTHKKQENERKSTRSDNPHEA
# Technique: protein-binding microarray
# Form: double-stranded DNA, one strand shown
# Matrix: in vitro
# Concentration: 0.8 µM
# Setting: whole 60-bp probe, no competitor
# Direction: higher = stronger binding
Strand,fluorescence intensity [a.u.]
GAATTGAAAATCGTACACGTTATATCAACGCTATAGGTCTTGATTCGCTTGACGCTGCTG,566
CTATCTTGGCGTTCACACGTGGGTTTAAAAAGGTTCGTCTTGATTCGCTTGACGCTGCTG,3050
CTATGAATGATATAACACGTTAAAGTTTCTAGATTCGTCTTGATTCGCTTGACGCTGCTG,519
CTAATCACCTAGCATCATGCTCTTCATACATGCTTCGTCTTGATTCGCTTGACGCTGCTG,533
CTAACTTTGCGGGATCACCCGCATAAAGTCGTCTTCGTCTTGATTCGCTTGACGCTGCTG,494
CCTAACTACTATAATCAGGAGGCATAGCTTCGTACAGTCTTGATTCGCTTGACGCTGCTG,524
GAAAAAAATGGAACGGTCGTGGCACATGTGGGATAGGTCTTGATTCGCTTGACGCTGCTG,750
GAAAAAAAGTTTAATCACGTTCCCGCTTCTTTTTAGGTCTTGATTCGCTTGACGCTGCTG,1500
GAACACGGCCTAATCCTCATGATTCATTTTATATAGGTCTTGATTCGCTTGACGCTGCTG,526
CTACAGACCTGTCGTCACCATAGCAACCAAAAATTCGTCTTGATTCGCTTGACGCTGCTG,527
CCTAACTACTATAATCAGGTACAATAGCTTCGTACAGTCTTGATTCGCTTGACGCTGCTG,500
CTACCAAATTCCCATCTGATGAACTGTTAGTTGTTCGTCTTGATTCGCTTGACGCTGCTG,507
GAAGGCACGGCTACCCACGCGCACAAAAGTAAATAGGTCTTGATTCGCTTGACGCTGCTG,560
GAATATATATTAATGCACATGGCTCTGTTGTATTAGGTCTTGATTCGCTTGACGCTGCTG,642
CTAAAAATAATCTCTCACGTTATACGCAATAAATTCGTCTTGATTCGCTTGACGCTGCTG,843
GAAATGAATACTGATCATGTGAAACATGATTAATAGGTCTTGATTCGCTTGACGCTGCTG,2720
GAACTGTTTTCTGTGCGCACTCTACGCTGATCGTAGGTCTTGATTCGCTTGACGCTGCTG,491
CTATCCGTGTTTCATCACCCACATTATAGTACATTCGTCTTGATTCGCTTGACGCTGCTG,533
CTATATAATACTAATCACGCATTGCAACTTCACTTCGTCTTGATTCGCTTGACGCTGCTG,737
CTATCGAGAAAAGAAAACGTGAAAAAATAAGCTTTCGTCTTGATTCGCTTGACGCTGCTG,704
GAATTCTTGCATTTTCGCGTGATATCAAAATTATAGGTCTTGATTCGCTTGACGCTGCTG,970
GAACTAAAGAACGTGCATCAGAGAAGAATGACCTAGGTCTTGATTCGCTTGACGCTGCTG,1030
CTAAGGCCATATTATCACGTAACAAACCTAATTTTCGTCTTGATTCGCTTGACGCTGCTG,553
